{"data": "Measurements gathered from unrelated publications", "note": "Numbered parts are unrelated; each lists some results of a single study. Several values in a cell are separate wells, animals, samples, runs or records.", "UniProt Q8N4C8, sequence (whole entry, looked up)": "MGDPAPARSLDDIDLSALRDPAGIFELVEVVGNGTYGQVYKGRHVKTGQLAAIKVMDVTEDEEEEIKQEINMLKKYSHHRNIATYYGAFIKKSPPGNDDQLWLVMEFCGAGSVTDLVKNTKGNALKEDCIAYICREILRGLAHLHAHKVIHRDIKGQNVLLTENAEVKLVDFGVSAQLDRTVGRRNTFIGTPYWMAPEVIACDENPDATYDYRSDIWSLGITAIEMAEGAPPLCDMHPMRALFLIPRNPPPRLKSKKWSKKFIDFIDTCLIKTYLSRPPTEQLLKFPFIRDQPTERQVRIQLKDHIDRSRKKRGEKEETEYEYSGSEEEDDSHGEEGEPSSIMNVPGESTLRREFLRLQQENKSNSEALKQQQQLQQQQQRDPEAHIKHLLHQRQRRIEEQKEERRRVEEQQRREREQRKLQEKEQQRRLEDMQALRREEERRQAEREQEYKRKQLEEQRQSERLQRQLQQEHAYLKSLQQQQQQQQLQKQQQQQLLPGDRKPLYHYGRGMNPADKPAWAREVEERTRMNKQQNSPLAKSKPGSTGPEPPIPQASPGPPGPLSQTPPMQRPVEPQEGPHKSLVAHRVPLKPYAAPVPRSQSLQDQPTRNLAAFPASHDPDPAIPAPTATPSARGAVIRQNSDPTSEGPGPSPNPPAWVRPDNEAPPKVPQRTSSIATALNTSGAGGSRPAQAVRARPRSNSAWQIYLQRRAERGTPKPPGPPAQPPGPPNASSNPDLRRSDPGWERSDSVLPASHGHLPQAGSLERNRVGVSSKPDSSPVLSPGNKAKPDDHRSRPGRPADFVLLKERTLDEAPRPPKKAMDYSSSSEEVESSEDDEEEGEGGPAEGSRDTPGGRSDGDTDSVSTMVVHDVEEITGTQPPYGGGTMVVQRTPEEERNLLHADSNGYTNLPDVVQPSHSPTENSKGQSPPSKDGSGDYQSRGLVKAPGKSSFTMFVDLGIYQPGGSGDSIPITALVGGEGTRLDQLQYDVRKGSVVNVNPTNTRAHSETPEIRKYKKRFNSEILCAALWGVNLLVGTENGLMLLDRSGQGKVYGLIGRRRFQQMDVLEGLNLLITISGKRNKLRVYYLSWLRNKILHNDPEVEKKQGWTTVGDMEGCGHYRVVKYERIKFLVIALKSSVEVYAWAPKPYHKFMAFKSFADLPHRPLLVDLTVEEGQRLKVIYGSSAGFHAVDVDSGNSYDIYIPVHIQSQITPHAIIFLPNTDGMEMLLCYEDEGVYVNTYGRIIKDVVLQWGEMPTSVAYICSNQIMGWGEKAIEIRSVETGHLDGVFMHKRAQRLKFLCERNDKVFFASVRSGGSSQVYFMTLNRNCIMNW", "UniProt P35590, sequence (whole entry, looked up)": "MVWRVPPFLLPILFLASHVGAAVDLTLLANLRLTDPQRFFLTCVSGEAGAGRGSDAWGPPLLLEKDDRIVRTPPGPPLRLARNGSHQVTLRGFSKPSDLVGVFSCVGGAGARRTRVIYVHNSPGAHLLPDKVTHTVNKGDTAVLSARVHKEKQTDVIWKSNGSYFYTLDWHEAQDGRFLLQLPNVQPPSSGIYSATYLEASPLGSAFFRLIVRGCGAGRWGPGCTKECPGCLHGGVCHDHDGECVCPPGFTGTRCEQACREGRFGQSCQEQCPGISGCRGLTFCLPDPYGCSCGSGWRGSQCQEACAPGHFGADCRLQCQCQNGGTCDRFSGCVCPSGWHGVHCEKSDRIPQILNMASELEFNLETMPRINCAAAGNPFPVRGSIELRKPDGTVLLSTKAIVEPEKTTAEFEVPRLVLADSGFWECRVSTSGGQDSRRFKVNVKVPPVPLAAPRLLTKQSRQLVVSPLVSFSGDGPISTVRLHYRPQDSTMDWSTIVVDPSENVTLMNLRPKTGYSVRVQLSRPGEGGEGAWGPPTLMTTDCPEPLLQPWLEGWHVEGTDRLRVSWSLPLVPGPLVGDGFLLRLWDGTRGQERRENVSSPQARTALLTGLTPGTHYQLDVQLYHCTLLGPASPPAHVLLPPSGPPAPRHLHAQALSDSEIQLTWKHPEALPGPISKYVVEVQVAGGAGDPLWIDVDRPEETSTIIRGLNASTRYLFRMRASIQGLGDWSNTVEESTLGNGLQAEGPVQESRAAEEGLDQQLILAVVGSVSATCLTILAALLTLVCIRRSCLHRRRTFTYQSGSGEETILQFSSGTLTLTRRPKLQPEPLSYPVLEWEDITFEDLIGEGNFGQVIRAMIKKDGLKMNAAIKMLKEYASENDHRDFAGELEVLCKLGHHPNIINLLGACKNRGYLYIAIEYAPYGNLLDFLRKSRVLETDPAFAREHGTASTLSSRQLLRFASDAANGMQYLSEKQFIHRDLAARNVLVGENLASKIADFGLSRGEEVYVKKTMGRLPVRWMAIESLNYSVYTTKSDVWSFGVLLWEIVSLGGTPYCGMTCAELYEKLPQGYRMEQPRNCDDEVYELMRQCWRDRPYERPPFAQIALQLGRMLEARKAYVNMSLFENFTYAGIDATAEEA", "UniProt P51813, sequence (whole entry, looked up)": "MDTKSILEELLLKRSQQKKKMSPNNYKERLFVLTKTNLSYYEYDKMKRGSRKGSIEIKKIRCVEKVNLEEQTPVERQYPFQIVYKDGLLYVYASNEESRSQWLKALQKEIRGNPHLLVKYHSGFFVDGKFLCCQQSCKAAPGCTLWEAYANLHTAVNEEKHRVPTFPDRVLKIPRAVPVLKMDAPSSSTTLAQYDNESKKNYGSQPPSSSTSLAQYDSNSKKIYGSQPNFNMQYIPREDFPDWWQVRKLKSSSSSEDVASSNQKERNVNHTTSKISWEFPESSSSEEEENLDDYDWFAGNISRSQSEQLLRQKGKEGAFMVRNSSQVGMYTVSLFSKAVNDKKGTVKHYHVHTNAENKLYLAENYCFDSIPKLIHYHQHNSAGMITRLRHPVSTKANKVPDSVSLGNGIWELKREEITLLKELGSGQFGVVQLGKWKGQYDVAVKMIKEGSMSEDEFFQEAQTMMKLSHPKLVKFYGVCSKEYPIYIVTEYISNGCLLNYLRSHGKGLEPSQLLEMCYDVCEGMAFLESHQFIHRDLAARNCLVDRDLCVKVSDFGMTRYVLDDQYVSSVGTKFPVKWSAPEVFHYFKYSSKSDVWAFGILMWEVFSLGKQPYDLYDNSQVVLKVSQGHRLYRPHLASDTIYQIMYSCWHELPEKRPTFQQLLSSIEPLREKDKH", "UniProt P04629, sequence (whole entry, looked up)": "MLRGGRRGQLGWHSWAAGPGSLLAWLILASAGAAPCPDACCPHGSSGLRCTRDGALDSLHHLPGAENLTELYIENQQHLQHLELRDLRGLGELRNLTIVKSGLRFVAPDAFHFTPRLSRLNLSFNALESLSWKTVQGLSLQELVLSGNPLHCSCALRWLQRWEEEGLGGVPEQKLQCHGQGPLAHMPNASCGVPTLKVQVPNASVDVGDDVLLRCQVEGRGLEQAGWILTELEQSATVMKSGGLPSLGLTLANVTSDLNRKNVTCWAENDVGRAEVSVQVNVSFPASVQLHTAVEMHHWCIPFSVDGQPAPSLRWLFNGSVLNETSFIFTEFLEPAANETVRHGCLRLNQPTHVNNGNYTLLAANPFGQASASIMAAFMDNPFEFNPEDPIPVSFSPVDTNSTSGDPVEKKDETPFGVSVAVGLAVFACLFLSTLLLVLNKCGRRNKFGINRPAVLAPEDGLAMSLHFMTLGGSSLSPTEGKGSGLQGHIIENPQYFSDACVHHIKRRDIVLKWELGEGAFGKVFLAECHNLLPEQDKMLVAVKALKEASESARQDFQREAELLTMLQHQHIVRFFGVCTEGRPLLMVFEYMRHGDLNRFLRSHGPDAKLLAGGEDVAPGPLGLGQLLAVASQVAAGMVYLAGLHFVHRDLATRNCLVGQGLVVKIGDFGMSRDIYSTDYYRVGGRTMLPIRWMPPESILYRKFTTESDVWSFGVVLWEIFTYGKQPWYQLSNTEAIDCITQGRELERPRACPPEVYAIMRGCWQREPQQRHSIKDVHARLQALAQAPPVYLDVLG"}
{"data": "Study 1", "Structure (SMILES)": "O=C(Nc1cccnn1)N1CC(C/C=C/c2cncc(Oc3ccc(C(F)(F)F)cn3)n2)C1", "observed": "cell-free assay", "technique": "competition with immobilised ligand", "concentration": "1 µM"}
{"target": "Activin receptor type-1 (ACVR1, Homo sapiens, UniProt Q04771)", "remaining binding [%]": 92}
{"target": "Serine/threonine-protein kinase Nek9 (NEK9, Homo sapiens, UniProt Q8TD19)", "remaining binding [%]": 100}
{"target": "Serine/threonine-protein kinase 33 (STK33, Homo sapiens, UniProt Q9BYT3)", "remaining binding [%]": 100}
{"target": "High affinity nerve growth factor receptor (NTRK1, Homo sapiens, UniProt P04629)", "remaining binding [%]": 82}
{"target": "Phosphatidylinositol 4,5-bisphosphate 3-kinase catalytic subunit gamma isoform (PIK3CG, Homo sapiens, UniProt P48736)", "remaining binding [%]": 100}
{"target": "Tyrosine-protein kinase receptor Tie-1 (TIE1, Homo sapiens, UniProt P35590)", "remaining binding [%]": 100}
{"target": "Mitogen-activated protein kinase 7 (MAPK7, Homo sapiens, UniProt Q13164)", "remaining binding [%]": 100}
{"data": "Study 2", "Compound": "Cc1ccc(NC(=O)c2ccnc(C(F)(F)F)c2)cc1-c1cc(OCCO)nc(N2CCOCC2)c1", "observed": "binding", "concentration": "1 µM"}
{"target": "Misshapen-like kinase 1 (MINK1, Homo sapiens, UniProt Q8N4C8)", "assay": "competition with immobilised ligand", "remaining binding [%]": 83}
{"target": "Cytoplasmic tyrosine-protein kinase BMX (BMX, Homo sapiens, UniProt P51813)", "assay": "competition with immobilised ligand", "remaining binding [%]": 93}
{"target": "RAC-beta serine/threonine-protein kinase (AKT2, Homo sapiens, UniProt P31751)", "remaining binding [%]": 100}
{"target": "Rho-associated protein kinase 2 (ROCK2, Homo sapiens, UniProt O75116)", "remaining binding [%]": 96}
{"data": "Study 3", "Structure (SMILES)": "CC(=O)N[C@@H](Cc1c[nH]c2ccccc12)C(=O)N[C@@H](CCC(=O)C=[N+]=[N-])C(=O)OC(C)C"}
{"test system": "C57BL/6 CES1-/- mouse, EL4 tumour", "conditions": "intravenous, 1 mg/kg DON equivalent, treatment day 8, 5 days per week", "tumour volume": "784 mm3 and 932 mm3 and 264 mm3 and 363 mm3 and 493 mm3 and 360 mm3 and 618 mm3 and 568 mm3"}
{"test system": "mice, MC-38 tumour rechallenge", "conditions": "0.26 mg/kg, day 29 after injection", "tumour volume": "0 mm3"}
{"test system": "mouse, MC-38 rechallenge tumour", "conditions": "1 mg/kg, day 0 after injection", "tumour volume": "0 mm3"}
{"test system": "mice, MC-38 tumour rechallenge", "conditions": "1 mg/kg, day 25 after injection", "tumour volume": "0 mm3"}
{"test system": "C57BL/6 CES1-/- mouse, EL4 tumour", "conditions": "intravenous, 1 mg/kg DON equivalent, treatment day 7, 5 days per week", "tumour volume": "137 mm3 and 218 mm3 and 345 mm3 and 523 mm3 and 384 mm3 and 238 mm3 and 165 mm3 and 520 mm3"}
{"data": "Study 4", "target": "Serine/threonine-protein kinase PLK2 (PLK2, Homo sapiens, UniProt Q9NYY3)", "observed": "enzyme activity", "action": "inhibitor", "concentration": "0.5 µM", "relative to": "control", "UniProt Q9NYY3, sequence (whole entry, looked up)": "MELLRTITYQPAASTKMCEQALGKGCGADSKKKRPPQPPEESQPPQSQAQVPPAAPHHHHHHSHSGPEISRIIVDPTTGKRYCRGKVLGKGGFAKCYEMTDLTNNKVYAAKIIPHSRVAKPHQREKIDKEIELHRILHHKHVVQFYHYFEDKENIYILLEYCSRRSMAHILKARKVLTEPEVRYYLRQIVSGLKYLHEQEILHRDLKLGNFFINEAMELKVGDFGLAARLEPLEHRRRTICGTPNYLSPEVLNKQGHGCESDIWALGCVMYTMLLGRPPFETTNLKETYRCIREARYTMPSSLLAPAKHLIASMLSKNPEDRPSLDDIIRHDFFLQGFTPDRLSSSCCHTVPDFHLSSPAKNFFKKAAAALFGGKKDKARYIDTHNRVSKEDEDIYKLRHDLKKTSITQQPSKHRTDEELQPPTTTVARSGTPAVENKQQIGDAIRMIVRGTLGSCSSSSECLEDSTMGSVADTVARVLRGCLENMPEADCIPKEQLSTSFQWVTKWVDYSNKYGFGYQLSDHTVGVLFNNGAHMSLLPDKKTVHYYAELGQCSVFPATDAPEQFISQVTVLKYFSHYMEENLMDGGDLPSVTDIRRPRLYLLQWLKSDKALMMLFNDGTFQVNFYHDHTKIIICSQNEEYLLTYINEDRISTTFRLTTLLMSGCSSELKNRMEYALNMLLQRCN"}
{"SMILES": "CCOC(=O)c1c(C)[nH]c(/C=C2\\C(=O)Nc3ccccc32)c1C", "remaining activity [%]": 102}
{"SMILES": "Cn1c2ccccc2c2c3c(c4c5ccccc5n(CCC#N)c4c21)CNC3=O", "remaining activity [%]": 105}
{"SMILES": "COc1ccc(CNC(=O)Nc2ncc([N+](=O)[O-])s2)cc1", "remaining activity [%]": 104}
{"SMILES": "Nc1ccc2ncnc(NCCc3ccc(Oc4ccccc4)cc3)c2c1", "remaining activity [%]": 102}
{"SMILES": "Cn1sc(=O)n(Cc2ccccc2)c1=O", "remaining activity [%]": 106}
{"SMILES": "O=C(Nc1cccc(Nc2cc(Nc3cccc(C(F)(F)F)c3)ncn2)c1)C1CC1", "remaining activity [%]": 109}
{"SMILES": "Oc1ccc(-c2nc(-c3ccncc3)c(-c3ccc(F)cc3)[nH]2)cc1", "remaining activity [%]": 98.7}
{"SMILES": "O=C(O)c1ccc2c3c1cccc3c(=O)n1c3ccccc3nc21", "remaining activity [%]": 97}
{"SMILES": "CN(C)c1ccc(C=C2C(=O)Nc3ccccc32)cc1", "remaining activity [%]": 111}
{"SMILES": "CC(C)[C@H](CO)Nc1nc(Nc2cc(N)cc(Cl)c2)c2ncn(C(C)C)c2n1", "remaining activity [%]": 92}
{"SMILES": "O=c1c2ccccc2[nH]c(=S)n1CCN1CCC(=C(c2ccc(F)cc2)c2ccc(F)cc2)CC1", "remaining activity [%]": 104}
{"SMILES": "Cc1cccc(-c2[nH]c(C(C)(C)C)nc2-c2ccc3c(c2)OCO3)n1", "remaining activity [%]": 92.1}
{"SMILES": "O=C1NC(=O)C(c2cn(CCCO)c3ncccc23)=C1c1cnccn1", "remaining activity [%]": 104}
{"SMILES": "NCCNc1ncc(C(N)=O)c(Nc2cccc(C(F)(F)F)c2)n1", "remaining activity [%]": 98.7}
{"SMILES": "CNC(=O)c1cc(Oc2ccc(NC(=O)Nc3ccc(Cl)c(C(F)(F)F)c3)cc2)ccn1", "remaining activity [%]": 101}
{"note": "Repeated from above (study 2):"}
{"target": "Cytoplasmic tyrosine-protein kinase BMX (BMX, Homo sapiens, UniProt P51813)", "assay": "competition with immobilised ligand", "remaining binding [%]": 93}
{"target": "Misshapen-like kinase 1 (MINK1, Homo sapiens, UniProt Q8N4C8)", "assay": "competition with immobilised ligand", "remaining binding [%]": 83}
{"target": "Rho-associated protein kinase 2 (ROCK2, Homo sapiens, UniProt O75116)", "remaining binding [%]": 96}
{"target": "RAC-beta serine/threonine-protein kinase (AKT2, Homo sapiens, UniProt P31751)", "remaining binding [%]": 100}
